{"data": "Experimental data gathered from unrelated publications", "note": "A part holds a random share of what one study measured."}
{"data": "Set 1", "target": "Sal-like protein 4, full length isoform B (SALL4, Homo sapiens, UniProt Q9UJQ4-2, residues 1-616)", "method": "universal PBM", "molecule type": "double-stranded DNA, one strand shown", "matrix": "in vitro", "concentration": "not given", "notes": "8-mer, flanks averaged, mean of replicates", "direction": "higher = stronger binding"}
{"Sequence": "CGCACTTA", "E-score": 0.0213}
{"Sequence": "GCGGCCTA", "E-score": -0.266}
{"Sequence": "TACTGCGA", "E-score": 0.0277}
{"Sequence": "CCGTTCCG", "E-score": -0.235}
{"data": "Set 2", "target": "Histone acetyltransferase KAT6A, winged helix 1, GST fusion (KAT6A, Homo sapiens, UniProt Q92794, residues 1-85)", "method": "protein binding microarray", "molecule type": "double-stranded DNA, one strand shown", "matrix": "in vitro", "concentration": "not given", "notes": "8-mer, flanks averaged, mean of 2 arrays, mostly near background", "reference": "not given", "direction": "higher = stronger binding", "Construct (chain)": "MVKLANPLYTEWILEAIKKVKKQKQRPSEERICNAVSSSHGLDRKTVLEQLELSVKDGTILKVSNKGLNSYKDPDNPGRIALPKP"}
{"Sequence": "GGAGACCA", "E-score": -0.0776}
{"Sequence": "AGGACTTC", "E-score": -0.158}
{"Sequence": "GTAGAACA", "E-score": -0.077}
{"data": "Set 3", "target": "Interferon regulatory factor 5, full length, phosphomimetic (IRF5, Homo sapiens, UniProt Q13568-2, residues 1-514, K96S/S451D/S453D/S456D/S462D)", "method": "protein-binding microarray", "molecule type": "double-stranded DNA, one strand shown", "matrix": "in vitro", "concentration": "250 nM", "notes": "60-bp whole probe", "with": "salmon DNA 0.4 mg/ml", "reference": "random background probes", "direction": "higher = stronger binding"}
{"Sequence": "GCCTAGCACTTAGGACTGGATTATCGGTTAGTGCTAGTCTTGATTCGCTTGACGCTGCTG", "log fluorescence [z-score]": 4}
{"Sequence": "GCCTAGCACTCATGTTTTAAATTCTAACTGTGCTAGGTCTTGATTCGCTTGACGCTGCTG", "log fluorescence [z-score]": 0.553}
{"Sequence": "GCCTAGCACTCAACTTGTCTTTTCATACTGTGCTAGGTCTTGATTCGCTTGACGCTGCTG", "log fluorescence [z-score]": 0.902}
{"Sequence": "GCCTAGCACAGTCTCTTCTGGGACTCATGGTGCTAGGTCTTGATTCGCTTGACGCTGCTG", "log fluorescence [z-score]": 0.0672}
{"data": "Other studies, line by line"}
{"Substance": "PhoQ, residues 284 288 289 292 302 303 DDMDFR", "target": "PhoP, residues 12 14 15 18 19 HLGGL (Escherichia coli, UniProt P23836)", "test": "Sort-seq, refers to: YFP reporter", "system": "E. coli", "setting": "PhoQ-PhoP variant library, with: 10 µM Mg2+", "how to read": "reference: high Mg2+ state, higher = stronger signaling", "quantity": "fold induction", "value": 0.849}
{"note": "For quick reference, copied from above (set 1):"}
{"Sequence": "TACTGCGA", "E-score": 0.0277}
{"Sequence": "CCGTTCCG", "E-score": -0.235}
